# Experimental data gathered from unrelated publications.
# Every numbered part comes from another study and shows a few of its results, in no order.

# Study 1
# Target: RNA binding protein fox-1 homolog 2, RRM domain, GST-SBP tag (RBFOX2, Homo sapiens, UniProt O43251-10, residues 100-194)
# Technique: RNA Bind-n-Seq
# Form: RNA
# Matrix: in vitro
# Tested at: 365 nM
# Notes: natural RNA segment, single round, ends assumed
# Baseline: no-protein control
# Reading: higher = stronger binding
# All sequences stand within: GGGAGUUCUACAGUCCGACGAUC … UGGAAUUCUCGGGUGCCAA
# Residues (chain): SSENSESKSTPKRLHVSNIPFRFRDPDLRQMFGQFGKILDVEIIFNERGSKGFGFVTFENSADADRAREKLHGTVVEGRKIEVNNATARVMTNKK
Strand,RBNS enrichment (R)
AGGCUCAGCCCGCUGGAGCAUGAGCUCUGUGUGUACCGAGAACUGGGGUGAUGUUUUACUUUUCACAGUAUGGGCUACACAGCAGCUGUUCAACAAGAGUAAAUAUUGUC,0.356
CAAUGUGCCAGUCGGCUCUUUGCACUCGCCUUGUCCUAUAUAUCCGUACGGAGGUGUGCAAUCCUGUGUCAGUCGCCUUGUGACACUGAAGUGGAUGAGUUAUAGAGGAG,0.485
AGUUGUUCAGGGUCCCCGUGUGUGUGAUAAGCAGUGCUGGCUGGCUGUCUUCAGAACUCUUGGAAAUCUUUACACAUGCGAGUGCUAACCACUUUGAGCAAGGCUGCCUU,0.525
UUUUUUUCUUUUUUAGAAAACAGGGAGUUGAAGUCCAACCUAUUUAAAAACCCCACCAUUUGGAGAAUUACAAGGGUUUUGUCCUGAAUUGUAGUGUUGGCAAGCCCAAG,0.466
AUUCCUUGCGGAAUUCUGUGGGAGAAAAGAUCCUAUCCCUUCGCAGUUGCUCCGUGGGCUCUCUAGGGGCUCUGGGCUCUGCCUGCUGCAGUGUCCUCAGUGAGCUCUCU,0.278
UUGAGAUAGCAUACAGUAGAUGUUUAAGAAAUAGUAGGAAGUCCGGUGAGACGGCUGUUUCCAUCAAGAACUCCUAGCACUGCUGUAAAUAUCAUGGUGCCUACUGGAAG,0.47
CCCUAUGGCUAUAACUUUAAAUAAACUAAACCAAAAAUGUUAUUGAUGUUUUAUAUAUAGAGAGUAGUCUCAUUAGUUUUUGUUACUGUAAUGUUUGAAGUCUCAAAUGC,0.578
ACUUUGCAAGGAGUCCAUUCAUGAGGGUGCUAUCACUCACACCUUCUGUGGCACCAUUGAGUACAGGGCCCCAGAGAUUCUAGUGCGCACUGGUCACAACCGGGCAGUGG,0.4

# Study 2
# Target: Prothrombin, mature alpha-thrombin (F2, Homo sapiens, UniProt P00734)
# Technique: aptamer microarray, sandwich
# Form: DNA with 2'F-ANA
# Matrix: in vitro
# Tested at: 200 nM
# Notes: whole 15-mer aptamer, many near background
# Added: Cy3 exosite-II aptamer, 400 nM
# Reading: higher = stronger binding
# Strand: GGTTGGTGTGGTTGG
Modification,mean fluorescence intensity
2'F-ANA at 1 2 4 5 6 8 13,52.7 a.u.
2'F-ANA at 2 3 5 8 9 13 15,81.7 a.u.
2'F-ANA at 4 5 9 10 11 12 14 15,46.4 a.u.
2'F-ANA at 2 5 10 11 13 14,44.9 a.u.
2'F-ANA at 2 4 6 7 10 14,66.1 a.u.
2'F-ANA at 2 5 6 8 10 13 14 15,47.6 a.u.
2'F-ANA at 1 3 4 5 6 7 10 11 12,51 a.u.
2'F-ANA at 1 6 8 9 10 11 12 15,64.4 a.u.
2'F-ANA at 1 4 7 8 9 11 12 13 14 15,105 a.u.
2'F-ANA at 4 5 6 8 10 11,48.6 a.u.
2'F-ANA at 1 4 5 9 11 12 13,60.3 a.u.
2'F-ANA at 2 4 6 7 12 15,492 a.u.
2'F-ANA at 2 3 4 7 9 11 12 14,295 a.u.
2'F-ANA at 1 3 6 8 11 14 15,84.1 a.u.
2'F-ANA at 3 4 7 9 14,322 a.u.
2'F-ANA at 1 2 3 4 5 6 7 11 12 13 14,53.7 a.u.
2'F-ANA at 1 2 6 8 9 11 13,116 a.u.
2'F-ANA at 2 3 4 5 6 9 10 12 13 14,53.7 a.u.
2'F-ANA at 5 6 7 11 12 13 14,43.7 a.u.
2'F-ANA at 3 6 7 8 10 13 14,364 a.u.
2'F-ANA at 1 4 5 7 8 9 11 15,55.5 a.u.

# Study 3
# Target: Transcription factor Sp1 (SP1, Homo sapiens, UniProt P08047, residues 1-785, full length assumed)
# UniProt P08047, sequence (whole entry, looked up): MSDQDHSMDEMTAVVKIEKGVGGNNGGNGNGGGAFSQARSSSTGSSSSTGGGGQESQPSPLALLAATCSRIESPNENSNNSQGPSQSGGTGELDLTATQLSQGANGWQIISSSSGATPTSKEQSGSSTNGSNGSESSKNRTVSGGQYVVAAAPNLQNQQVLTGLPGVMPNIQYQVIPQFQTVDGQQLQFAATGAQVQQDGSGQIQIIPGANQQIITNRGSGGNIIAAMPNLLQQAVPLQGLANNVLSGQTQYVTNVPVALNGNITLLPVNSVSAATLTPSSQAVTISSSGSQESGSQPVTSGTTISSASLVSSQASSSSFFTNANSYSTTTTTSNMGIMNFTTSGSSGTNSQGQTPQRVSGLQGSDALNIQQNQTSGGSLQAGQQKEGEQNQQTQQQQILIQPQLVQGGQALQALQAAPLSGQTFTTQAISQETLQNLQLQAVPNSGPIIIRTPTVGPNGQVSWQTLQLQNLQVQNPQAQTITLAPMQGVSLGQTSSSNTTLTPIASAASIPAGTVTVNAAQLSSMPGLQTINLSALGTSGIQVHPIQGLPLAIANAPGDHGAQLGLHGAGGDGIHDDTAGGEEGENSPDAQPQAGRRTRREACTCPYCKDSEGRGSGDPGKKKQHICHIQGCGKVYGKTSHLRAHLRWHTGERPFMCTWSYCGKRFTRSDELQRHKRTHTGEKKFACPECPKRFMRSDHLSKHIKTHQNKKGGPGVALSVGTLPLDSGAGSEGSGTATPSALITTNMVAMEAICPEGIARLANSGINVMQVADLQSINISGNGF
# Technique: protein-binding microarray
# Form: double-stranded DNA, one strand shown
# Matrix: in vitro
# Tested at: not given
# Notes: k-mer, scored over probes, only values ≥0.25
# Reading: higher = stronger binding
Strand,E-score
ATGAATGG,0.278
CCCATATA,0.311
GGTGTGGA,0.263
GCCGCCCC,0.467
ATTACCCC,0.301
GACCCCTC,0.277
GTGGGCGA,0.313
ACCATCCC,0.255
CCTCATTA,0.266
ACTCCCCA,0.251
GGGCGTTA,0.262
ATCCCCGC,0.346
CCCCTTCC,0.265
CGAGGGGC,0.257
ATGGGGTA,0.279
CATATGGG,0.333
GTCGGGGA,0.299
AACGCCCC,0.457
ACCATATA,0.295
AGGGGTTA,0.26

# Study 4
# Target: Histone acetyltransferase KAT6A, winged helix 1, GST fusion (KAT6A, Homo sapiens, UniProt Q92794, residues 1-85)
# Technique: protein binding microarray
# Form: double-stranded DNA, one strand shown
# Matrix: in vitro
# Tested at: not given
# Notes: 8-mer, flanks averaged, mean of 2 arrays, mostly near background
# Baseline: not given
# Reading: higher = stronger binding
# Residues (chain): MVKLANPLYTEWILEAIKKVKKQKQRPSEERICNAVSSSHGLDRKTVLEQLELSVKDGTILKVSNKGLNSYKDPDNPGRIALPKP
Strand,E-score
AAGAGACT,-0.157
GAAGGAGC,0.0312
AAGCAGAT,-0.248
CACAGAGG,-0.162
CCCATGCC,-0.0765
CATTACCC,0.0468
CCTGTCCA,-0.0856
AGCCGGTG,0.254
AGTCCTCA,-0.189
GAGTCTTA,-0.069
CGGTAGCA,-0.0107
CAACGTAG,-0.154
AGACTGCC,0.0456
AAGGGGAG,-0.0253
CCACAGGC,-0.09
CTCATATC,-0.176
ACTGAATC,-0.0936
GAACTTAA,-0.189
AGGAGCGG,0.283
CCACCGAA,-0.143
AGTACCAT,-0.118

# Study 5
# Target: Interferon regulatory factor 7, full length, phosphomimetic (IRF7, Homo sapiens, UniProt Q92985, residues 1-503, S101K/S471D/S472D/S475D/S476D/S477D/S483D/S484D/S487D)
# UniProt Q92985, sequence (whole entry, unmodified, looked up): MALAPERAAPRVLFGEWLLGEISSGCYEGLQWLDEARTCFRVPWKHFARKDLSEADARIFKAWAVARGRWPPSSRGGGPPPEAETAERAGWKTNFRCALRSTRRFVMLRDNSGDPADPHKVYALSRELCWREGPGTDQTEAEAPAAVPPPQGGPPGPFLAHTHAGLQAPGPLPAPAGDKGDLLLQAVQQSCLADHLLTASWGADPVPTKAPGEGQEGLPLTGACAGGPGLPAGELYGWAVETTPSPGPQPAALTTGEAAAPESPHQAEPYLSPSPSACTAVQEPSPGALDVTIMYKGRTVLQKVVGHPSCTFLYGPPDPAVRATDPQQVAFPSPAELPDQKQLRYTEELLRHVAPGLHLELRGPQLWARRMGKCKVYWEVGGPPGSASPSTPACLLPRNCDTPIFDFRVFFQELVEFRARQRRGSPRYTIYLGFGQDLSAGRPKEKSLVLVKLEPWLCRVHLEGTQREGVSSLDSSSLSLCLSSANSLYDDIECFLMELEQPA
# Technique: protein-binding microarray
# Form: double-stranded DNA, one strand shown
# Matrix: in vitro
# Tested at: 250 nM
# Notes: 60-bp whole probe
# Added: salmon DNA 0.4 mg/ml
# Baseline: random background probes
# Reading: higher = stronger binding
# All sequences stand within: GCCTAGCAC … GTCTTGATTCGCTTGACGCTGCTG
Strand,log fluorescence [z-score]
TTAGCTTTCGACACTGGGTTAGTGCTA,-0.0929
TCAATTATTTATTGTAGCACTGTGCTA,0.0564
CAAACACTGGTTTTTACTTTGTGCTAG,0.317
TTAGGTATGCTTCTCCTTTAGTGCTAG,0.385
GACGCTATCGGGTATCGGGACGTGCTA,0.0382
TTAGGACTGGGTTGCGGTTAGTGCTAG,0.527
TTAGATATCGGGATTCGATTAGTGCTA,1.19
GACGGTTTCCGGTATCGGGACGTGCTA,2.96
GTCATTTACATTTTAGTAGTGTGCTAG,0.766
GACGGTCTCGGTATCGGGATGTGCTAG,2.01
TCATCTTTTATGCTCTTACTGTGCTAG,0.543
GACGGTATCGGTTCCGGGACGTGCTAG,2.83
GACGATTTCGGCACTGGAGACGTGCTA,-0.02
TTAGGACGGCTACTGCTTTAGTGCTAG,-0.612
GACGATAACAGTTTCGAGACGTGCTAG,4.01
TTGGGTCTCGGTTTCGGTTAGTGCTAG,10.3
CAGGTTCTCTTTTATTTTTTGTGCTAG,3.34
GCCGGACTGGGACTGGGGACGTGCTAG,-0.501
GACGGACTGGTGACTGGGGACGTGCTA,-0.686

# A few entries again (study 5):
Strand,log fluorescence [z-score]
TCAATTATTTATTGTAGCACTGTGCTA,0.0564
CAAACACTGGTTTTTACTTTGTGCTAG,0.317
TTAGGTATGCTTCTCCTTTAGTGCTAG,0.385
GACGCTATCGGGTATCGGGACGTGCTA,0.0382
TTAGGACTGGGTTGCGGTTAGTGCTAG,0.527
TTAGATATCGGGATTCGATTAGTGCTA,1.19
GACGGTTTCCGGTATCGGGACGTGCTA,2.96
GTCATTTACATTTTAGTAGTGTGCTAG,0.766
GACGGTCTCGGTATCGGGATGTGCTAG,2.01
TCATCTTTTATGCTCTTACTGTGCTAG,0.543
GACGGTATCGGTTCCGGGACGTGCTAG,2.83
GACGATTTCGGCACTGGAGACGTGCTA,-0.02
